# Assay results of several laboratories.
# Lines come from different studies, so protocols differ. ± gives the spread as reported.
SMILES,target or system,test,test system,setting,how to read,measurement,value
CC[C@H](C)C(=O)N1CCC(NC(=O)Nc2ccc(OC(F)(F)F)c(F)c2)CC1,Caco-2,Caco-2 permeability,,"10 µM, 60 min, pH 7.4 apical, 7.4 basolateral, replicate 2, added: verapamil",basolateral to apical,percent recovery,82%
CC(=O)O[C@H]1C(=O)[C@@]2(C)[C@H]([C@H](OC(=O)c3ccccc3)[C@]3(O)C[C@H](OC(=O)[C@H](O)[C@@H](NC(=O)c4ccccc4)c4ccccc4)C(C)=C1C3(C)C)[C@]1(OC(C)=O)CO[C@@H]1C[C@@H]2O,,item: Nausea,patients with advanced solid tumours,"intravenous, dose not given, all grades, possibly related to drug",,adverse event incidence,31%
C[C@H]1CN(C(=O)CC#N)[C@]12CCN(c1ncnc3[nH]ccc13)C2,,,"healthy Japanese males, plasma","oral, 5 mg single dose",,Cmax,56.5 ng/mL
Cn1cc(-c2ccc(-c3cncc(Cl)c3N3CCC4(CCNC4=O)CC3)cc2)cn1,COLO 205,"gene expression, microarray, item: PLK4 mRNA",,"concentration not given, 2 h",baseline: untreated cells,log2 fold change,-1.74
CCOc1c([C@H](C)n2nc(C)c3c(N)ncnc32)cc(Cl)c(F)c1[C@@H]1CNC(=O)C1,,item: QTcF change ≤30 ms,previously treated B-cell malignancy,"oral, 15 mg once daily, overall population",baseline: baseline,ECG observations,100%
CNCCOC12CC3(C)CC(C)(CC(Cn4ncc(-c5ccc(N6CCc7cccc(C(=O)Nc8nc9ccccc9s8)c7C6)nc5C(=O)O)c4C)(C3)C1)C2,,,anaesthetised male beagle dogs,"intravenous bolus, 0.03 mg/kg, 135 min",baseline: baseline,systemic vascular resistance change,155%
COC(=O)C1=CO[C@@H](O[C@@H]2O[C@H](CO)[C@@H](O)[C@H](O)[C@H]2O)[C@@H]2C(CO)=CC[C@H]12,,three freeze-thaw cycles,rat plasma,"200 ng/mL, -70 °C freeze",,accuracy,89.9%
Cc1cc(-c2nccc3c2ccn3CC(=O)Nc2ccc(-c3cnccn3)cn2)ccn1,,,human,"SAD part, single 20 mg dose",,subjects with Dizziness TEAEs,0%
O=C(O)CCC(=O)O.[2H]C([2H])([2H])Oc1cc(C)c2[nH]ccc2c1CN1CC[C@@H](C2CC2)C[C@H]1c1ccc(C(=O)O)cc1,,multiple ascending dose,healthy Chinese subjects,125 mg twice daily,,subjects with TEAE Appendicitis,0%
COc1ccc2c(c1)CN(C(=O)CCN1CCC(Cc3ccccc3)CC1)CC[S@@+]2[O-],,,"beagle dog, male, plasma","intravenous, 8 mg/kg, day 14, 14-day toxicity study",,unbound plasma concentration,8.86 µM
Nc1ncn([C@H]2C[C@H](O)[C@@H](CO)O2)c(=O)n1,,,mouse plasma,"80 ng/mL, 3 months, -80 °C, long-term stability, with THU",,mean deviation from nominal,6.61%
CNC(=O)c1ccccc1Nc1cc(Nc2ccc(N3CCOCC3)cc2OC)ncc1C(F)(F)F,,,soybean oil,"24 h, 25 °C",,solubility,220 µg/mL
Cn1cc(Nc2nccc(-c3ccc4c(c3)CN(C3COC3)CC[C@H]4NC(=O)c3cn(C(C)(C)C)nn3)n2)cn1,,,"human, whole blood","150 mg twice daily, day 14",baseline: pre-dose baseline,granulocyte count change,-7.69%
CC1=C(/C=C\C2=CCC[C@]3(C)[C@@H]([C@H](C)CCCC(C)C)CC[C@@H]23)C[C@@H](O)CC1,,LC-MS,"human, epidermis",dose not given,,endogenous concentration,25.1 ± 5.2 ng/mg protein
O=C(Nc1cnccc1Cl)N1CCN(Cc2ccc3c(c2)OC(F)(F)O3)CC1,,item: Presyncope,human healthy young men,"10 mg, multiple dose",,adverse event incidence,33.3%
COc1ccc2nc([S@@+]([O-])Cc3ncc(C)c(OC)c3C)[nH]c2c1,,,"human, dried blood spots","oral, 10 mg omeprazole, control arm",,AUC,228 ng·h/mL
O=C(Nc1nc2cccc(-c3ccc(CN4CCS(=O)(=O)CC4)cc3)n2n1)C1CC1,,item: rheumatoid arthritis,rheumatoid arthritis patients,"oral, 150 mg once daily, 4 weeks, any relatedness",,treatment-emergent adverse events,0%
Cc1ccc([C@@H]2O[C@H](CO)[C@@H](O)[C@H](O)[C@H]2O)cc1Cc1ccc(-c2ccc(F)cc2)s1,,,Japanese type 2 diabetes patients,"400 mg, day 15, 24 h urine collection",baseline: baseline,urinary potassium excretion change,1.5 mEq
O=C(c1cccnc1-c1ccncc1)N1CCC(O)(Cc2ccccc2)CC1,,,"healthy Japanese adults, plasma","oral, 100 mg twice daily, day 7",,Cmax/dose,2.04 ng/mL/mg
C=CCN1CC(=O)N2[C@@H](Cc3ccc(O)cc3F)C(=O)N(Cc3cccc(N4CC(N5CCN(CC)CC5)C4)n3)C[C@@H]2N1C(=O)NCc1ccccc1,,,advanced solid tumour patients,"oral, 120 mg twice daily, grade ≥3, dose-escalation",,treatment-related ALT increased,0%
CCCC(=O)OCSc1ccccc1C(=O)NCCn1cc(C(=O)NCc2cccc(C)n2)c(=O)c2cc3c(cc21)OCO3,CEM-SS,"cell viability, XTT",RPMI with 10% FBS,6 days,,TC50,> 100 µM
Cc1ccc(Sc2ccccc2N2CCNCC2)c(C)c1,,item: AST increased,healthy adult women,"oral, 5 mg daily, 12 days",,participants with TEAE,0%
COc1ccnc(C(=O)NC(CO)C(=O)O)c1O (racemic),,aerobic dark soil incubation,sandy loam soil,"20 °C, modelling endpoint",,DT50,118 days
CNC(=O)c1ccc(-c2cnc3ncc(Cc4ccc5ncccc5c4)n3n2)cc1F,,,"human, normal hepatic function, plasma","oral, 200 mg, adjusted geometric mean",,unbound AUC(0-inf),183 ng·h/mL
COc1nnc2ccc(N3CCC(c4ccc(OCCN5CCN(C)C(=O)[C@H]5C)cc4)CC3)nn12,,,"patients, plasma","oral, 10 mg once daily, multiple dose, monotherapy",,AUC(0-t),0.364 µM·h
CC(C)C[C@H](NC(=O)C[C@H](O)[C@H](CC(C)C)NC(=O)[C@H](Cc1c[nH]cn1)NC(=O)CNC(=O)[C@@H](NC(=O)[C@H](C)NC(=O)[C@H](Cc1c[nH]c2ccccc12)NC(=O)[C@H](CCC(N)=O)NC(=O)[C@@H](Cc1ccccc1)NC(=O)COCCOCCNC(=O)CCC(C(=O)O)N1CCN(CC(=O)O)CCN(CC(=O)O)CCN(CC(=O)O)CC1)C(C)C)C(N)=O (some centres unmarked) [lutetium-177 labelled],,,"female BALB/c nu/nu mice, pancreas","intravenous, 100 pmol, 4 h, added: PA 300 µg",,tissue uptake,0.5 ± 0.06 %ID/g
NC1(C(=O)N[C@@H](CCO)c2ccc(Cl)cc2)CCN(c2nc[nH]c3nccc2-3)CC1,,,metastatic CRPC patients,"320 mg b.i.d., any grade, treatment-related, added: enzalutamide 160 mg daily",,incidence of Anaemia,0%
Cc1cc(NC2CCN(C(=O)OC3CCN(C(=O)/C=C/CN(C)C)C3)CC2)n2ncc(C(C)C)c2n1 (centres unmarked),,"Phase I dose escalation CTCAE v4.0, item: blood creatinine increased",patients with advanced solid tumours,"dose not given, Total dosing grade 3 or higher",,patients with adverse event,0%
CNc1ccc(-c2nc3ccc(O)cc3s2)cc1 [carbon-11 labelled],,ex vivo biodistribution,"APP/PS1 mouse, AD model, skin","intravenous, 30 min",,SUV,0.295 ± 0.144
CCc1cc(C(=O)NC)c2nccc(N3CCc4c(cc(Cn5ccnc5)cc4-c4cn(C)nc4C(F)(F)F)C3=O)c2c1,,,Sprague Dawley rats,"oral, 50 mg/kg once daily, 7 days",,blood HDW,21.7 ± 0.83 g/L
c1ccc2cc3c(ccc4ccccc43)cc2c1,,,PDMS-water partitioning,PAH compilation,,literature range of log K,4.59 to 5.66 log units
Cc1cc(Nc2ccc(S(F)(F)(F)(F)F)cc2)n2nc(C(C)(F)F)nc2n1,Plasmodium vivax,12-lead Holter ECG,human malaria patients,"oral, 800 mg, QTc above 500 ms",,patients with QTcF above threshold,0%
N#Cc1ccc2c(c1)[C@H]1CCCN(C(=O)c3ccc4[nH]cnc4c3)[C@H]1C2,,,human females,"160 mg, day 7",,SHBG level,27.9 nmol/L
OCC1=C[C@@H](O)[C@@H]2C=CO[C@@H](O[C@@H]3O[C@H](CO)[C@@H](O)[C@H](O)[C@H]3O)[C@H]12,,post-procedure stability,rat plasma,"8 ng/mL, 3 h, room temperature",,accuracy,93.1%
Cc1cc([C@H]2C[C@H]3[C@@H](C)SC(N)=N[C@@]3(c3ccc(F)cc3F)CO2)on1,,,"male 129/SVE mouse, brain","subcutaneous, 50 mg/kg, 9 h",,brain concentration,0.201 µM
CCn1cc(C(=O)N2CCOCC2)c(=O)c2cc(NC3Cc4ccccc4C3)cnc21,,,"human, fasted, plasma","oral, 600 mg single dose, tablet, arithmetic mean",,half-life,3.83 h
COc1ccc([C@@H](O)c2cc(-c3ncnc4cc(N5CCOCC5)ccc34)c(F)cc2Cl)nn1,,,locally advanced rectal cancer patients,"150 mg, added: capecitabine and radiotherapy",,drug-related gastrointestinal AE,67%
CCCCCCCCCCCCCCCC(=O)N[C@@H](CCC(=O)NCCCC[C@H](NC(=O)[C@H](C)NC(=O)[C@H](C)NC(=O)[C@H](CCC(N)=O)NC(=O)CNC(=O)[C@H](CCC(=O)O)NC(=O)[C@H](CC(C)C)NC(=O)[C@H](Cc1ccc(O)cc1)NC(=O)[C@H](CO)NC(=O)[C@H](CO)NC(=O)[C@@H](NC(=O)[C@H](CC(=O)O)NC(=O)[C@H](CO)NC(=O)[C@@H](NC(=O)[C@H](Cc1ccccc1)NC(=O)[C@@H](NC(=O)CNC(=O)[C@H](CCC(=O)O)NC(=O)[C@H](C)NC(=O)[C@@H](N)Cc1cnc[nH]1)[C@@H](C)O)[C@@H](C)O)C(C)C)C(=O)N[C@@H](CCC(=O)O)C(=O)N[C@@H](Cc1ccccc1)C(=O)N[C@H](C(=O)N[C@@H](C)C(=O)N[C@@H](Cc1c[nH]c2ccccc12)C(=O)N[C@@H](CC(C)C)C(=O)N[C@H](C(=O)N[C@@H](CCCNC(=N)N)C(=O)NCC(=O)N[C@@H](CCCNC(=N)N)C(=O)NCC(=O)O)C(C)C)[C@@H](C)CC)C(=O)O,,,"rat Sprague-Dawley male, plasma","subcutaneous, 1.0 mg/kg, first injection, 7 day escalation",,AUC(0-peak),125000 ng·h/mL
C[C@@H](N)C1CCN(S(=O)(=O)c2cccc3cnccc23)CC1,,,healthy volunteers,"250 mg, fasted",,participants with headache,16.7%
O=C(CCCCCCC(=O)Nc1ccc(CC[18F])cc1)NO,,,"athymic nu/nu male mice, LNCaP xenograft, small intestine","intravenous, 1 h",,tissue uptake,16.7 ± 1.2 %ID/g
Cc1c(-c2ccc(N3CCc4cccc(C(=O)Nc5nc6ccccc6s5)c4C3)nc2C(=O)O)cnn1CC12CC3(C)CC(C)(C1)CC(OCCNCC[C@H](O)CO)(C3)C2,,,"beagle dog, male, anaesthetised","intravenous infusion, 0.3 mg/kg/min, 30 (unit not given)",baseline: vehicle,heart rate change,-5%
CNC(=O)c1ccc(-c2cnc3ncc(Cc4ccc5ncccc5c4)n3n2)cc1F,,item: Fatigue,hepatocellular carcinoma patients,"oral, 600 mg twice daily, expansion cohort, grade 3-4",,patients with adverse event,0%
CC[C@H](C)[C@H](NC(=O)CN)C(=O)N[C@@H](CC(C)C)C(=O)N[C@@H](CC(=O)O)C(=O)N[C@@H](C)C(=O)N[C@H](C(=O)N[C@@H](CCCCN)C(=O)N[C@@H](C)C(=O)N[C@H](C(=O)N[C@@H](C)C(=O)N[C@@H](CCCCN)C(=O)N[C@@H](C)C(=O)N[C@H](C(=O)N[C@@H](CCCCN)C(=O)N[C@@H](C)C(=O)N[C@@H](CCCCN)C(=O)N[C@@H](C)C(=O)NCC(N)=O)[C@@H](C)CC)[C@@H](C)CC)[C@@H](C)CC,,circular dichroism,10 mM SDS,100 µM,,helix content,16%
COc1cc(Nc2ncc3c(n2)-c2ccc(Cl)cc2C(c2c(F)cccc2OC)=NC3)ccc1C(=O)O,,"item: Dizziness, all grades","cancer patients, phase 1/2","oral, dose not given, added: pembrolizumab",,patients with adverse event,13%
